Results gathered from unrelated publications.
A part holds a random share of what one study measured. Positions count from the first letter of the parent shown.

Series 1
Target: RING finger protein unkempt homolog, zinc fingers 1-6, GST-SBP tag (UNK, Homo sapiens, UniProt Q9C0B0, residues 30-357)
Technique: RNA Bind-n-Seq
Molecule type: RNA
Sample: in vitro
Concentration: not given
Notes: RNA with constant flanks, ends assumed
Relative to: input RNA pool
Direction: higher = stronger binding
All sequences stand within: GGGAGUUCUACAGUCCGACGAUC … CAACAGAGGAUUGAGCAUCA
Residues (chain): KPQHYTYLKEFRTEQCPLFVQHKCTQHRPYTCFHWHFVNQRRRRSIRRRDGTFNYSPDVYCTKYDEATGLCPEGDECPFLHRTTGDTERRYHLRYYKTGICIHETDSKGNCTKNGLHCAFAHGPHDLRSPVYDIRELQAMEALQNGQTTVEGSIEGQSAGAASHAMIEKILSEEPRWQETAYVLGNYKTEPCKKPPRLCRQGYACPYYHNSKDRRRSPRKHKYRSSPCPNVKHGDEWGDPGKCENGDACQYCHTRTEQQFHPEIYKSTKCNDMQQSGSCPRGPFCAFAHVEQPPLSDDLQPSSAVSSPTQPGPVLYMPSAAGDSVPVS
Oligonucleotide | bound/input enrichment
AUUAAAACAACAAACGAAACCUAGUGAAGCAUCUUUUUAAAAGGCUGCCAGCUUAAUGAAUUCCGAUGUACUUUAAGAGAGAAAGACUGGUUAUUUCUCCUUUGUGUAAGUGAUAAACAA | 0.0996 ratio
UGCAGUUCAAAUCCUUGCCCCAGUGAGGGAAUCCCUAGGGAAGUGGGUGAUGGGACCCGAGCCGAUCCACUUCCUCCAGUUCAUUCGGCCUCUAAAGAAAUCACAGAGUCCAAGGCACAA | 0.102 ratio
UAUUAACUGGGUGUUCUGACCACGAGGGACUCCUGGCAUCCACGAUUGUUCUGAUUCGCCAACCGCCUUCUCUUGUCUACAGCUGCCAAUGCCAAGAGUCCCUAGCCUGCCUUCCUCACC | 0.204 ratio
GUUCGAUUACUCUACGCAAAGCGACCAGGAAUUGGACUGUCUCCGUCUCACAGGAGGUACUCCGGCUACAUGUGCGACCUACUUGCAGAUAAGCCCUACCGCCCUCACUUCAAGCCACUC | 0.0592 ratio
AUUUUUGGAAAGGUUCAAGGGGUGUUUUUCCGCAAGUACACUCAGGCUGAGGGUAAAAAGCCCGGUUUGGUGGGCUGGGUUCAGAACACCGACCGGGGCACCGUGCAAGGGCAACUGCAG | 0.235 ratio
GGAUUUUUUUCUGUGUAAAUCAUCAAGUAUAAGAAGAAACUAUGGGACUCUGAGCCUUGCUUCCGAGAAUUUACAGUGGACAAAUAGGUGUCAUCAAACCAGUUUUUAAUCAUUCUGACU | 0.281 ratio
UGCUUUUGCUACCACUGGAAGUUCCUUCUGUUUCUUGUGGAGUACCUUUUGCUGUCUGGGACUUGCCGAUAAUGGUGUUUCCUAGGGCUCCCUCCAGGGCCCUCUGCCUCACUAACUGGA | 0.191 ratio
UGAACUACAAAGAGUAGAAGAGCUUUAUGAUUCAUUAUUACAAGCUAUUGCCUUCUAUGAAUCCGCAGUGUUUGACUCUCAGCCUUAGAAUUCUGAGGUUAACGUGCUAAAGUAUAAUUA | 0.259 ratio
UCGGGUGAGGCCUGGCCUGCUGUUCUAAGUAGUCCACUGGCAUUGCCUUCCAAGCCACUUCCGGUCCUUUUGUUUUGUUUUGUUUUUGUUUUUAAAUCAGUGCUCUUACUUCCUGUACAU | 0.951 ratio
UUGGCAAAGCAUCCAGAGAAGCUGGCUACUGUCCUUUCUGGGGCGUGUGAUGGAGAGGUCCGAAUUUGGAAUCUAACUCAGCGGAAUUGUAUCCGUACAAUACAAGCACAUGAAGGCUUU | 0.193 ratio
CUUGCACGAAUUUUGUAUAUUUCAAAUAUUUCUGUAAAGGUUUCUUCUUUUCUGUCCGAGUGUGGUGUUAAGCCAGAGUCAGUGGUUUGUGUUCUCAUUAAAAUGUUUGUUUAAAUCCUA | 0.299 ratio

Series 2
Target: Interferon regulatory factor 3, full length, phosphomimetic (IRF3, Homo sapiens, UniProt Q14653, residues 1-427, S386D/S396D/S398D/S402D/T404D/S405D)
UniProt Q14653, sequence (whole entry, unmodified, looked up): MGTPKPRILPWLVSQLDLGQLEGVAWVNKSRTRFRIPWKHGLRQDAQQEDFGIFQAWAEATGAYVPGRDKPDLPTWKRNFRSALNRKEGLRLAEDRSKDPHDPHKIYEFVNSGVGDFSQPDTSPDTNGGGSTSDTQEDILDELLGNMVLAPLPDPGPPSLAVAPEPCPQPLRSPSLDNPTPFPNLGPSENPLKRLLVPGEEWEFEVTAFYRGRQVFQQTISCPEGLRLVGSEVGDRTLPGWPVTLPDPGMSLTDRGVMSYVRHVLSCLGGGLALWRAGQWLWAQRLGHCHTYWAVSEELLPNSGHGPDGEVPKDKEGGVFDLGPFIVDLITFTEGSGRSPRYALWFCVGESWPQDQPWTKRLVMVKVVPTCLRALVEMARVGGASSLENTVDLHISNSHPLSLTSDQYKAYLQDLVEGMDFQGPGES
Technique: protein-binding microarray
Molecule type: double-stranded DNA, one strand shown
Sample: in vitro
Concentration: 2540 nM top
Notes: 60-bp whole probe
Added: salmon DNA 0.4 mg/ml
Relative to: random background probes
Direction: higher = stronger binding
All sequences stand within: GCCTAGCAC … GTCTTGATTCGCTTGACGCTGCTG
Oligonucleotide | fitted relative affinity [z-score]
TCACCTTTCTCTCTGTGACTGTGCTAG | 5.47
TTAGAACTGGGGTTTCGAGTAGTGCTA | -0.13
GAAGGACTGGACACTGGGGACGTGCTA | -0.825
TTAGATATCCGGTTTCGATTAGTGCTA | 3.44
GACGGATTGCTTCTCCTGACGTGCTAG | 0.643
TTAGGTTTCCTTTTCATTTAGTGCTAG | 11.7
GGGCCTTGCATGTTTTTGACAGTGCTA | -0.929
TTAGAACTGAGTATCAATTAGTGCTAG | -0.0693
TTAGGTTTCGTCACTGGGTTAGTGCTA | 1.79
TTAGCTTTCCTACTGCTTTAGTGCTAG | 2.63
TGAGGACTGCTTCTCCTTTAGTGCTAG | -0.468
GACGATTACGGGACTGGAGACGTGCTA | -0.208
TTAGATATCGGGACTGCATTAGTGCTA | 0.0116
TTAGTTATCCTTATCCTTTAGTGCTAG | 3.5
TAGGGACTCAGGTCTCCCTTGGTGCTA | -0.54
TCATCTTCACATATAATACTGTGCTAG | 1.55
TCATTTTTTTTTTGGAAACTGTGCTAG | 1.22
GACGGACTGGACTTTAGGGACGTGCTA | -0.718

Series 3
Target: CCNB3, cyclin fold, Cln2 fusion (human)
Technique: yeast growth competition, sequencing
Sample: yeast
Notes: weak parent motif
Relative to: not given
Direction: higher = stronger binding
Parent: CDC25A docking peptide (human); PPHRRRLLFACSP
Variant | normalised enrichment score
C11T | -0.27
R6D | -0.09
P2I | 0.109
P13Q | 0.295
F9G | 0.372
L8Y | 0.319
L8S | -0.0165
R4W | 0.174
P1V | 0.0206
P1E | 0.244
P2E | 0.619
F9D | -0.251
A10V | 0.0713
C11F | 0.301
R6Q | 0.337
F9V | 0.242
P1R | 0.378
L8C | 0.0993
A10F | 0.46
S12D | -0.105
S12E | 0.553
R4K | 0.359
R5S | 0.155
L8M | 0.11
R4F | 0.569

Series 4
Target: Phosphate system positive regulatory protein PHO4, full length, GST-tagged (PHO4, Saccharomyces cerevisiae, UniProt P07270, residues 1-312)
Technique: competition protein-binding microarray
Molecule type: double-stranded DNA, one strand shown
Sample: in vitro
Concentration: 2 µM
Notes: whole 60-bp probe, lowest competitor level
Added: Cbf1 competitor, 0.05 µM
Direction: higher = stronger binding
All sequences stand within: … GTCTTGATTCGCTTGACGCTGCTG
Target sequence (chain): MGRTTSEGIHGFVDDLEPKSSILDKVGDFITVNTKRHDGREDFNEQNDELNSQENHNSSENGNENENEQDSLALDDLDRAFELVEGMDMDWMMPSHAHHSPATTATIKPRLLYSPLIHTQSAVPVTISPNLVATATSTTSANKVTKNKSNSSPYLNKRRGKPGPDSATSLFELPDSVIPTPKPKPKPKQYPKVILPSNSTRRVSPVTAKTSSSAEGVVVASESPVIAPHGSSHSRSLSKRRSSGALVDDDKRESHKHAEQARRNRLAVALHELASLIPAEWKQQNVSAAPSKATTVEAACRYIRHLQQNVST
Oligonucleotide | fluorescence intensity [a.u.]
AAATTACTAAGTTATCACGTGTTTTACCCCGTATGA | 17100
CTTCTGTAAATTTGTCACTATACTTGACGCGCCCCG | 3270
AATATCCTCAACCTACACGTCTTCACCATCGGTACC | 6110
TTAAGAGATAATCCGCACGTGATGGAATTCATTCTG | 17500
TGGATTTTTCCAAAACACGTGTCGGAAACTTATTTT | 17600
AAGTTCCTACCACAACGCGTGTGAATGATCTTGTAC | 9540
AGTGATCTTATCTTCCACATGTCCTTGGCCACTGGC | 7840
GTATTTATGGCCTGGCACGTTCATTTCCTACATCCT | 12600
AACCAGAGCCCAATAAACGTGGTCGTTGTCGAGTAG | 13900
GTTATTAAACTCCGTCACAGTAAGGCATACCCCATT | 4240
AAAGCGGTAATTTGTCACCGGACTTCACATATCTAT | 2940
CTTTCAAATGTGGGTGACGTGCTAACTTGGGGCTTG | 6870
ATGCCCTATTAAAAATTCGTGGGACTATGATAATTT | 5330
TATCAAATTTGCGGCCACGCAAGTAACTACGTAGGT | 6730
GCTGAAGTTATTGACTCCGTGGGTAATAAGGTCTCA | 4960
TTGTTATTTTGTCCGCGCATGTCCCGGACCCGCCAT | 7460
CTTCTTTTTTTGGATTACGTGCTTTTAAAGCGGGAT | 7180
GCAAGACCTAAAAAATTCGTGCCAGGGTTTGAGCTA | 4320
CATGGGGTTTATCCACTCGTGTCCTTGGTTTCATGG | 8310
CTTCTGTAAATTTGTCACATAACTTGACGCGCCCCG | 3500
GTCTTGTCTCATTAGCACGTGTTTTTCCCCACTTCA | 16200
CTTGCGTTAGCTATTTTCGTGCGATTTGTTTGTTCC | 4830
ATGGTTTATCCCGGCCACGTGTGTTACCTCCGGTGA | 17000
TACTGACAAGATCGGCACGTTCGCCTAACCTGCGGT | 13700
CTTTCCCGATCTTGTTCGGTGGGTGTAGCACATTTG | 3970

Series 5
Target: ABI1, truncated, D143A, DHFR fusion (Arabidopsis thaliana)
Technique: DHFR PCA, deep sequencing
Sample: yeast
Notes: methotrexate growth selection, single substitutions
Added: (+)-ABA 2500 µM
Relative to: wild-type fitted maximum
Direction: higher = stronger binding
Parent: PYL1, truncated, DHFR fusion (Arabidopsis thaliana); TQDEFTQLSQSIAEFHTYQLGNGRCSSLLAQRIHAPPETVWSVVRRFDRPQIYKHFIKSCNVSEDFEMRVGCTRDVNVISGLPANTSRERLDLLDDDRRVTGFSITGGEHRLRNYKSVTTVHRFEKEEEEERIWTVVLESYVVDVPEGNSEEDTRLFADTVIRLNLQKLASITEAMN
Variant | relative binding score
T101F | 104%
F5D | 93.9%
R74H | 19.7%
K168T | 96.4%
V62D | 65.1%
D65A | 94.8%
R123M | 103%
V143R | -6.14%
N165I | 2.77%
D48V | 62.1%
K126C | 100%
E4C | 99.4%
Q10I | 98.1%
S171C | 94.7%
E129S | 103%
S59L | 89.9%
E14H | 89.7%
Q51H | 94.1%
L29G | 56.6%
E64V | 92.9%
T135Y | -2.06%
G107P | 69.3%

For quick reference, copied from above (series 4):
Oligonucleotide | fluorescence intensity [a.u.]
AAATTACTAAGTTATCACGTGTTTTACCCCGTATGA | 17100
CTTCTGTAAATTTGTCACTATACTTGACGCGCCCCG | 3270
AATATCCTCAACCTACACGTCTTCACCATCGGTACC | 6110
TTAAGAGATAATCCGCACGTGATGGAATTCATTCTG | 17500
TGGATTTTTCCAAAACACGTGTCGGAAACTTATTTT | 17600
AAGTTCCTACCACAACGCGTGTGAATGATCTTGTAC | 9540
AGTGATCTTATCTTCCACATGTCCTTGGCCACTGGC | 7840
GTATTTATGGCCTGGCACGTTCATTTCCTACATCCT | 12600
AACCAGAGCCCAATAAACGTGGTCGTTGTCGAGTAG | 13900
GTTATTAAACTCCGTCACAGTAAGGCATACCCCATT | 4240
AAAGCGGTAATTTGTCACCGGACTTCACATATCTAT | 2940
CTTTCAAATGTGGGTGACGTGCTAACTTGGGGCTTG | 6870
ATGCCCTATTAAAAATTCGTGGGACTATGATAATTT | 5330
TATCAAATTTGCGGCCACGCAAGTAACTACGTAGGT | 6730
GCTGAAGTTATTGACTCCGTGGGTAATAAGGTCTCA | 4960
TTGTTATTTTGTCCGCGCATGTCCCGGACCCGCCAT | 7460
